Assay results from different studies.
Numbered parts are unrelated; each lists some results of a single study.

Study 1 — technique: RNA Bind-n-Seq; molecule type: RNA; matrix: in vitro; concentration: 200 nM; setting: whole 134-nt RNA, ends assumed; with: 150 mM LiCl; baseline: input library; direction: higher = stronger binding; each molecule: 7-deaza-guanosine replaces G
Target: Fragile X messenger ribonucleoprotein 1, C-terminal low-complexity region (Fmr1, Mus musculus, UniProt P35922)
| Sequence | log2 enrichment |
| --- | --- |
| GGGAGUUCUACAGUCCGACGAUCACCAUGCAGGUGGGCAUCUUUGGGAAGUGGGGCAAGGGGGGGAUAGGGAGGGGAAAAACACUUUGGGAACAGGUGGUCCCAGGUCGUUUCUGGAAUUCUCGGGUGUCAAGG | 1.16 |
| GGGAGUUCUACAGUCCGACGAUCUGGCCCUGGUGGCAUGCGGGGAGGAAGAGGUGGCCUCAUGGAUCGUGGUGGUCCCGGUGGAAUGUUCAGAGGUGGCCGUGGUGGAGAAAGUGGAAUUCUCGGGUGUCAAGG | -0.077 |
| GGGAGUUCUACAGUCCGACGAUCGCAGGAAGUAAAAACAAAUGGAAAUGCUUCGGAUAGUGCCAGGGGUGGGGGUUGCUAAGGAAAGGGUGGGAUGGGAGUGGGUAAAGAGUUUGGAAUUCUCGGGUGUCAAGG | 1.62 |
| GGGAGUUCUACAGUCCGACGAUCCAAGUCCUGUGCUACACAUCGUAUGUACCGAAUCGGUUUUUGGUUUUUGGUUUGGAAAGUAUUAUGUUACGCCGUUCGGAUCUGCACUUCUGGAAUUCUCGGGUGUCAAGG | -2.05 |
| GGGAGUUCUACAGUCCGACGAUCCACAGACAACACGCACCCACACAGACACAGAGGGAAGGGGUUGGGAUGGGGACAGGGUGCACAGCAGGGCGGGGUAGGACCCCAACCCCUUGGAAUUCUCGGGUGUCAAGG | 0.764 |
| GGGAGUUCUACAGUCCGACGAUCCACAGACAACACGCACCCCCACAGACACAGAGGGAAGGGGUUGGGAUGGGGACAGGGUGCACAGCAGGGCGGGGUAGGACCCCAGCCCCUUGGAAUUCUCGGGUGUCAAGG | -0.347 |
| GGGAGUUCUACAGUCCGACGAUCACCAUGCAGGUGGGCAUCUUUGGGAAGUGGGGCAAGGGGGGGAUAGGGAGGGGGGUAACACUUUGGGAACAGGUGGUCCCAGGUGGUUUCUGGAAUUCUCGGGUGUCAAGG | 1.33 |
| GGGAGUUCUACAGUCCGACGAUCUAACUUUAGAGGAGGAUCUGAUGGAUAUGGCAGUGGACGUGGAUUUGGGGAUGGCUAUAAUGGGUAUGGAGGAGGCCCUGGAGGUGGCAAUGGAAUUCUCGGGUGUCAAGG | 0.382 |
| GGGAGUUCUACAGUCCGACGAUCCAAGUCCUGUGCUACACAUCGUAUGUACCGAAUCGGGGUGGGGAGGGGAAAGGGGAAAGUAUUAUGUUACGCCGUUCGGAUCUGCACUUCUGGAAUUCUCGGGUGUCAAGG | -0.211 |
| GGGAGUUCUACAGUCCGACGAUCACCAUGCAGGUGGCCAUCUUUGGGAAGUGGGGCAAGGGGGGGAUAGGGAGGGGGGUAACACUUUGGGAACAGGUGGUCCCAGGUCGUUUCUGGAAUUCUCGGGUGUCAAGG | 1.6 |
| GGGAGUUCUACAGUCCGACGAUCCAAGUCCUGUGCUACACAUCGUAUGUACCGAAUCGGUUUUUGGAGGUUUUUUUGGAAAGUAUUAUGUUACGCCGUUCGGAUCUGCACUUCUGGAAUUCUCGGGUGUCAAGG | -1.15 |

Study 2 — technique: aptamer microarray, sandwich; molecule type: DNA with 2'F-ANA; matrix: in vitro; concentration: 200 nM; with: Cy3 exosite-II aptamer, 400 nM; direction: higher = stronger binding; sequence: GGTTGGTGTGGTTGG
Target: Prothrombin, mature alpha-thrombin (F2, Homo sapiens, UniProt P00734)
Setting: whole 15-mer aptamer, many near background
| Modification | mean fluorescence intensity [a.u.] |
| --- | --- |
| 2'F-ANA at 3 4 5 10 11 13 15 | 48.2 |
| 2'F-ANA at 3 4 6 8 9 10 13 15 | 181 |
| 2'F-ANA at 2 4 5 6 7 9 10 12 14 15 | 48.3 |
| 2'F-ANA at 1 3 6 9 10 11 15 | 66.3 |
| 2'F-ANA at 1 3 6 9 10 11 | 72.8 |
| 2'F-ANA at 2 4 5 6 7 8 15 | 87.1 |
| 2'F-ANA at 1 5 7 8 9 10 11 12 14 15 | 50.3 |
| 2'F-ANA at 2 4 5 6 7 9 13 14 15 | 71.3 |
| 2'F-ANA at 2 3 5 6 9 11 14 | 49 |
| 2'F-ANA at 11 12 13 14 15 | 198 |
| 2'F-ANA at 1 5 6 7 8 9 10 12 15 | 50 |
| 2'F-ANA at 4 6 7 8 9 10 11 12 14 15 | 57.4 |
| 2'F-ANA at 1 2 4 6 7 9 10 13 15 | 53.9 |
| 2'F-ANA at 1 3 5 6 7 11 | 54.3 |
| 2'F-ANA at 2 3 5 6 8 9 10 14 | 49.5 |
| 2'F-ANA at 2 4 5 6 9 10 11 13 | 46.1 |
| 2'F-ANA at 2 3 4 5 10 12 14 15 | 51.6 |
| 2'F-ANA at 1 2 4 5 8 9 10 14 15 | 46.9 |
| 2'F-ANA at 3 4 7 8 9 10 | 331 |
| 2'F-ANA at 1 2 3 7 8 9 13 | 237 |
| 2'F-ANA at 2 4 6 9 11 | 202 |
| 2'F-ANA at 1 10 12 14 | 44.7 |
| 2'F-ANA at 2 4 5 6 7 8 | 78 |
| 2'F-ANA at 2 4 7 8 9 10 13 14 | 68.7 |

Study 3 — technique: protein binding microarray; molecule type: double-stranded DNA, one strand shown; matrix: in vitro; concentration: not given; baseline: not given; direction: higher = stronger binding
Target: Histone acetyltransferase KAT6A, both winged helices, GST fusion (KAT6A, Homo sapiens, UniProt Q92794, residues 1-181)
Setting: 8-mer, flanks averaged, mean of 2 arrays, mostly near background
Construct (chain): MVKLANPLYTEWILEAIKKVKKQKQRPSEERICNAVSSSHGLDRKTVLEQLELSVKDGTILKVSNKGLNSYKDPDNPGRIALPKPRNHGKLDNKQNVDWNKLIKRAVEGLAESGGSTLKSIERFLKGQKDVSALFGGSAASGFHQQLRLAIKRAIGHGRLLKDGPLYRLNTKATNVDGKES
| Sequence | E-score |
| --- | --- |
| ATTCTGCA | -0.11 |
| ACGAAAAC | -0.048 |
| ACGCCTAA | -0.037 |
| CGGTGGGC | 0.0819 |
| ACTTATAT | -0.0758 |
| ATATAACC | -0.0633 |
| GTATTAGA | -0.0768 |
| ACTTGGTA | -0.204 |
| ACAATCCG | 0.181 |
| AGGGCGGC | 0.128 |
| GTTATCGA | -0.0641 |
| CATGAAAA | -0.195 |
| CCAACATC | -0.0153 |
| GGCTTCTA | -0.0212 |
| AATGCTTC | -0.0464 |
| CAGTGGGA | -0.168 |
| CCACCGGC | 0.145 |
| ACGCTAGA | 0.0318 |
| CTTTGTGC | -0.0523 |
| GTCAGCAC | -0.00369 |
| AAAACGAA | -0.0918 |
| TCTGTGCA | -0.197 |
| CACGTCCC | -0.0743 |
| CGGGCATC | 0.0895 |

Study 4 — technique: protein-binding microarray; molecule type: double-stranded DNA, one strand shown; matrix: in vitro; concentration: 250 nM; setting: 60-bp whole probe; with: salmon DNA 0.4 mg/ml; baseline: random background probes; direction: higher = stronger binding; shared flanks, not repeated: GCCTAGCAC … GTCTTGATTCGCTTGACGCTGCTG
Target: Interferon regulatory factor 5, full length, phosphomimetic (IRF5, Homo sapiens, UniProt Q13568-2, residues 1-514, K96S/S451D/S453D/S456D/S462D)
| Sequence | log fluorescence |
| --- | --- |
| TGAGATTTCCATTATTGCTTGTGCTAG | 0.633 z-score |
| GACGATATCGGGACTGGAGGCGTGCTA | 0.769 z-score |
| GAAGGTATCGGTTTCGGGACGTGCTAG | 8.47 z-score |
| TTTGAACTGAGTCTCGATTAGTGCTAG | 0.736 z-score |
| GTAGATCTCAGACTGGATTAGTGCTAG | -0.331 z-score |
| GTGGTTTTCATTATTGCTTCGTGCTAG | 2.39 z-score |
| AACGGTTTCGGGTATCGGGACGTGCTA | 8.49 z-score |
| GACGGTCGCCTTCTCCTGACGTGCTAG | -0.335 z-score |
| GACGAACTGGGGTTTCGAGATGTGCTA | 1.39 z-score |
| GACGATATCATTTTCGAGACGTGCTAG | 3.31 z-score |
| TTAGGTCTCGGTCTCGGGTAGTGCTAG | 0.407 z-score |
| GATGGTTTCGGTATCGGGACGTGCTAG | 10.3 z-score |
| GACGGTTCCGGTTTAGGGACGTGCTAG | 1.45 z-score |
| GACGGTTCCCTGTTCCTGACGTGCTAG | 0.11 z-score |
| GACGGTCTCGGTTTCCGGACGTGCTAG | 0.651 z-score |
| TCAAATTAGAATTTAAAACTGTGCTAG | 0.41 z-score |
| TTAGGTTTCGGGGCTGGGTTAGTGCTA | 5.14 z-score |
| GACGGACTGGGGACGGGGGACGTGCTA | 0.922 z-score |
| TCCCCTTCTACTCTCCTGCAGTGCTAG | 0.0595 z-score |
| GAATGTGTCTTAAATAGGAGAGTGCTA | 0.242 z-score |
| CTTCCACTTAGGGTGGCTGGGTGCTAG | 0.201 z-score |
| TCACTTCTGGACTGTTTGACTGTGCTA | 0.394 z-score |
| TCATACATGTGTTTAAGACTGTGCTAG | 0.282 z-score |
| TCAGTTTTGAGCTCTGTCACTGTGCTA | 0.425 z-score |

For quick reference, copied from above (study 4):
| Sequence | log fluorescence |
| --- | --- |
| AACGGTTTCGGGTATCGGGACGTGCTA | 8.49 z-score |
| GACGGTCGCCTTCTCCTGACGTGCTAG | -0.335 z-score |
| GACGAACTGGGGTTTCGAGATGTGCTA | 1.39 z-score |
| GACGATATCATTTTCGAGACGTGCTAG | 3.31 z-score |
| TTAGGTCTCGGTCTCGGGTAGTGCTAG | 0.407 z-score |
| GATGGTTTCGGTATCGGGACGTGCTAG | 10.3 z-score |
| GACGGTTCCGGTTTAGGGACGTGCTAG | 1.45 z-score |
| GACGGTTCCCTGTTCCTGACGTGCTAG | 0.11 z-score |
| GACGGTCTCGGTTTCCGGACGTGCTAG | 0.651 z-score |
| TCAAATTAGAATTTAAAACTGTGCTAG | 0.41 z-score |
| TTAGGTTTCGGGGCTGGGTTAGTGCTA | 5.14 z-score |
| GACGGACTGGGGACGGGGGACGTGCTA | 0.922 z-score |
| TCCCCTTCTACTCTCCTGCAGTGCTAG | 0.0595 z-score |
